# Published values from different studies.
# Parts stem from different laboratories: compare values within a part only. “And” joins repeats or separate records; there may be more than shown.
# Sequence of UniProt P42336 (whole entry, unmodified, looked up): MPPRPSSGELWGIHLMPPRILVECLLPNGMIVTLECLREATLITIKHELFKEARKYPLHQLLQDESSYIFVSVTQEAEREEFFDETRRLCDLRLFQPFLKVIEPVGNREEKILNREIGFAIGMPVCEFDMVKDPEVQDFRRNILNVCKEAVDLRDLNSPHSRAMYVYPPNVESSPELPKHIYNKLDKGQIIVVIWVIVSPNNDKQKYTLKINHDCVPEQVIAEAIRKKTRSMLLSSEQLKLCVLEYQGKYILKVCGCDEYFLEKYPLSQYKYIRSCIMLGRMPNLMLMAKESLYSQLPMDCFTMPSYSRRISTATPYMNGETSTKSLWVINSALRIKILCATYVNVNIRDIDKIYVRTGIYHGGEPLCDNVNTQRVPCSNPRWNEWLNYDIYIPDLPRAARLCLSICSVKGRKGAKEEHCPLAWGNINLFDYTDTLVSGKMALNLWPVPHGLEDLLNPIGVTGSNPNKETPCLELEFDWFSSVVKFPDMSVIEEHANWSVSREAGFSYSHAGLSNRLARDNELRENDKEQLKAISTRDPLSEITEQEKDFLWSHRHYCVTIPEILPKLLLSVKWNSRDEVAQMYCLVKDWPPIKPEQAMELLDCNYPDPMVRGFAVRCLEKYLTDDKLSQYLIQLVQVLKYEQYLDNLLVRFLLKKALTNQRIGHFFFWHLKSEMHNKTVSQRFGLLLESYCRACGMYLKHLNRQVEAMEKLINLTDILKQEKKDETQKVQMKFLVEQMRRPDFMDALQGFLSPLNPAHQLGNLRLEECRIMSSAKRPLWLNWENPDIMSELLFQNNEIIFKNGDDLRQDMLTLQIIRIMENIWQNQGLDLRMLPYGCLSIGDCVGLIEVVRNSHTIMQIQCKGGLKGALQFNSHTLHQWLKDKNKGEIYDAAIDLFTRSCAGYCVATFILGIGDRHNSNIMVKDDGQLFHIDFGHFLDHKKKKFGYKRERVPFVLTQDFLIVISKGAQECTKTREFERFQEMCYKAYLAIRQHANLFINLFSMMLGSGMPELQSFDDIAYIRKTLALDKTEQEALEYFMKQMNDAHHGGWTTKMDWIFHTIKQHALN
# Sequence of UniProt Q8IYT8 (whole entry, looked up): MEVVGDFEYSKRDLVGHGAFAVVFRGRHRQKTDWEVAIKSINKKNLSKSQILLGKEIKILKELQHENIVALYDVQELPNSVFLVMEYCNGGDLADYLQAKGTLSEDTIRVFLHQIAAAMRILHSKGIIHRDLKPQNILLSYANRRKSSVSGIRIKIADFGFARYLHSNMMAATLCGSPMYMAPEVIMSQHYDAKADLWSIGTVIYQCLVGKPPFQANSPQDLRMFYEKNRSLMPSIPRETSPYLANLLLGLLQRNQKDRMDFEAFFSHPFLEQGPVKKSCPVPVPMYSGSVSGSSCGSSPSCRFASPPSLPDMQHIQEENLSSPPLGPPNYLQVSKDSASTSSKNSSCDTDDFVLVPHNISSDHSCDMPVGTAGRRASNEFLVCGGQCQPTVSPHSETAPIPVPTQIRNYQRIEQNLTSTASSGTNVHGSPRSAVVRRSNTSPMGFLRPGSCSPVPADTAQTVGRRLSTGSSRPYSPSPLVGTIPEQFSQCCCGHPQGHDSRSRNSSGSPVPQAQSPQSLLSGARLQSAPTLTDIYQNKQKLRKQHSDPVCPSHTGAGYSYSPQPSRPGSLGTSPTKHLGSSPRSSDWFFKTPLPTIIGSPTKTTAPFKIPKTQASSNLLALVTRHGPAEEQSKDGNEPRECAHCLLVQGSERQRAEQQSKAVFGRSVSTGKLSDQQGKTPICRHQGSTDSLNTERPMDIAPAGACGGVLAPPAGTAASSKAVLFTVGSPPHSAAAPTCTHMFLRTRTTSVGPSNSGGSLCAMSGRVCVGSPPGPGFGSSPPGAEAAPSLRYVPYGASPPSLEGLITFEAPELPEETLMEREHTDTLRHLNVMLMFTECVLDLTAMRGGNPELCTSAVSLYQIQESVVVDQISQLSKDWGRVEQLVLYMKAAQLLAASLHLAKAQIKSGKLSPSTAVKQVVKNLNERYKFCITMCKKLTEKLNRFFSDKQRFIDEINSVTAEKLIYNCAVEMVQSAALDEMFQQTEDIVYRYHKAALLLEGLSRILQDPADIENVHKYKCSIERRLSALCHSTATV
# Sequence of UniProt O96013 (whole entry, looked up): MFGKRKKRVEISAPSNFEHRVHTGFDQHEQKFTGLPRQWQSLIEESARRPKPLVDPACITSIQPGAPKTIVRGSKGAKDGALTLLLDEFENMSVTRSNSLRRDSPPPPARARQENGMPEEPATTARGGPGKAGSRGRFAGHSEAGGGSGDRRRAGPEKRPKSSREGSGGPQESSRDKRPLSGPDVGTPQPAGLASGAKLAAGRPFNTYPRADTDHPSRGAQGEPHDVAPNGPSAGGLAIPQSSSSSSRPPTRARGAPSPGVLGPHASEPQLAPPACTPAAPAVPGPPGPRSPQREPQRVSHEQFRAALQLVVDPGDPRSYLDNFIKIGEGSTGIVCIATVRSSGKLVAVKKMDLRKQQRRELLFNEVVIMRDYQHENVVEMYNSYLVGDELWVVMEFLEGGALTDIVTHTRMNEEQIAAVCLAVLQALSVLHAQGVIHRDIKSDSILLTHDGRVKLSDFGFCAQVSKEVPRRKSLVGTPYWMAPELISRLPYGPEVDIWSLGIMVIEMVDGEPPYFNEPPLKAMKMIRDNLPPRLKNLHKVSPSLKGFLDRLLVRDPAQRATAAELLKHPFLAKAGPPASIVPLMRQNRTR
# Sequence of UniProt P15056 (whole entry, unmodified, looked up): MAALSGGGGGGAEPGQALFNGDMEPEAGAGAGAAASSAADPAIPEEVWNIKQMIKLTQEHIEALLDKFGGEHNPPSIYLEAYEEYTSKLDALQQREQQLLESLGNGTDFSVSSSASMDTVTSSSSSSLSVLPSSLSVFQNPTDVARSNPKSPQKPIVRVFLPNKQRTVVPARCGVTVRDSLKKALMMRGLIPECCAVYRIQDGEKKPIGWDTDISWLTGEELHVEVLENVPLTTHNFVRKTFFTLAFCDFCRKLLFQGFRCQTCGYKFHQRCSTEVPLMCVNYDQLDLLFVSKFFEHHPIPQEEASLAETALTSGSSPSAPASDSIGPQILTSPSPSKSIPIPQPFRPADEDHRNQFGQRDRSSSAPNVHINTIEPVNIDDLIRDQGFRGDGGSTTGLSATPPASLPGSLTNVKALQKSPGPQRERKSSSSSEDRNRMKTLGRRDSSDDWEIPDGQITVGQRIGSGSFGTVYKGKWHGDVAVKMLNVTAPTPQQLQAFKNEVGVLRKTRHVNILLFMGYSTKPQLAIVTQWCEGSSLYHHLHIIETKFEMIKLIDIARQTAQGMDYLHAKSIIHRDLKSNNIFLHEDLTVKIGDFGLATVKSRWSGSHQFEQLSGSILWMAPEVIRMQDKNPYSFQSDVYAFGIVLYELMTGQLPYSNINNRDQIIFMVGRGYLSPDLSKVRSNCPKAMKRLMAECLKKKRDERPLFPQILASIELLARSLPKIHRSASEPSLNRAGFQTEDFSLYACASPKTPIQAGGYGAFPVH

# Sample 1 — read-out: thermal unfolding; technique: differential scanning fluorimetry; concentration: 5.5 µM; reading: higher = more unfolded
# SMILES: C[C@@H]1CN(c2ccc(-c3cc(C(=O)NCCOCCOCCOCCOCCOCCOCCNC(=O)/C=C/c4[nH]cc(C(=O)N[C@@H](CC(N)=O)c5ccc(F)c(Cl)c5)c4-c4ccc(Cl)cc4F)ccc3F)cc2NC(=O)c2ccc(F)cc2C(F)(F)F)C[C@H](C)N1C
# WDR5: WD repeat-containing protein 5 (WDR5, Homo sapiens, UniProt P61964)
# DCAF1: DDB1- and CUL4-associated factor 1 (DCAF1, Homo sapiens, UniProt Q9Y4B6)
# Sequence of UniProt Q9Y4B6 (whole entry, looked up): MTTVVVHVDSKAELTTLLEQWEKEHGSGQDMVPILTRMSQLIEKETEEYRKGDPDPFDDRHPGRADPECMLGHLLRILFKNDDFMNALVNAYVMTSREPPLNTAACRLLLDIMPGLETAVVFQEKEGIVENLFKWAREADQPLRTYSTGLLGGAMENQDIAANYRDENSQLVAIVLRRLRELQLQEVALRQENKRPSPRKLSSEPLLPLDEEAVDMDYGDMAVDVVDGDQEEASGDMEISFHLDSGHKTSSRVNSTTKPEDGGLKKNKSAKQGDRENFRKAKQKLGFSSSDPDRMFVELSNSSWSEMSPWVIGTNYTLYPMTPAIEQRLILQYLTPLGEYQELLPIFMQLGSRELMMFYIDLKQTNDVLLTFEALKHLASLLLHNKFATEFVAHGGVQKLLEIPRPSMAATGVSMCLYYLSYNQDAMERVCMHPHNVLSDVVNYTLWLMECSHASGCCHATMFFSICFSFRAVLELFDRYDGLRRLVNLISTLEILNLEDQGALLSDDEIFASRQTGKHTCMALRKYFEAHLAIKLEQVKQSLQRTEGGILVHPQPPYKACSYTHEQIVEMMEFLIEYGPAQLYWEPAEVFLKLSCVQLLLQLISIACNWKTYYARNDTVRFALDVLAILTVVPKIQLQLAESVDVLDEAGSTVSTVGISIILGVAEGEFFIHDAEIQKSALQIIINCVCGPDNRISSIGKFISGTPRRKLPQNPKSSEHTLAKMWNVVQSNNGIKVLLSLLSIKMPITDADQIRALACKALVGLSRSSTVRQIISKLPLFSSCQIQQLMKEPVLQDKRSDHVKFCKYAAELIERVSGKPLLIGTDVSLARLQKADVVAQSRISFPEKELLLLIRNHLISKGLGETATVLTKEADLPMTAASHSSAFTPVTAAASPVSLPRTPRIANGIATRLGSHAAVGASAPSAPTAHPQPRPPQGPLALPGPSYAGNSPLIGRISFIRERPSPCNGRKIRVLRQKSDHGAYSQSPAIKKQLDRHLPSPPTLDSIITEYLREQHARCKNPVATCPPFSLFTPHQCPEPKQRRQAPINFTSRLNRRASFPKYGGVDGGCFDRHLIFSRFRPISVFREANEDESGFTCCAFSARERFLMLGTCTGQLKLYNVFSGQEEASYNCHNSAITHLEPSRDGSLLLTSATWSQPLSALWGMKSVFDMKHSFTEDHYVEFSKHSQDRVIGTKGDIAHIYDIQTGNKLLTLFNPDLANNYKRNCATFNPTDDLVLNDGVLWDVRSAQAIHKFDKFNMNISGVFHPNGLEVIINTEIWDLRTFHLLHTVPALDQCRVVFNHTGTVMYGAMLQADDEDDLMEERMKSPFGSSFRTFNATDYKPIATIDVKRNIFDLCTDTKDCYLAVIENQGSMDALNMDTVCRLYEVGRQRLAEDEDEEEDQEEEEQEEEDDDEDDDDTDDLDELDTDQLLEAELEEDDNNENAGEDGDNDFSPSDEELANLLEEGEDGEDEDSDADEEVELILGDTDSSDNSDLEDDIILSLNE
target,conditions,SYPRO Orange fluorescence [a.u.]
WDR5,37.4 °C,13800
WDR5,61.61 °C,15200
WDR5,82.41 °C,65400
DCAF1,83.41 °C,37300
DCAF1,87.61 °C,34100
WDR5,84.01 °C,63600
WDR5,59.81 °C,15400
DCAF1,87.21 °C,34200
WDR5,27 °C,13300
WDR5,37.6 °C,13800
WDR5,70.61 °C,29600

# Sample 2 — concentration: 1 µM
# SMILES: CC[C@@]1(c2cccc(C(F)(F)F)c2)C2=C(Nc3n[nH]cc31)[C@H](F)C(C)(C)CC2=O (single isomer, unassigned)
target,assay,scale,remaining binding [%]
"Tyrosine-protein kinase JAK1, JH2 (JAK1, Homo sapiens, UniProt P23458)","binding, competition with immobilised ligand",,100
"Tyrosine-protein kinase ABL1, non-phosphorylated (ABL1, Homo sapiens, UniProt P00519)","kinase binding, KINOMEscan",baseline: DMSO control,33
"TYRO3 (Homo sapiens, UniProt Q06418)","binding, competition with immobilised ligand",,100
"MYLK4 (Homo sapiens, UniProt Q86YV6)","kinase binding, KINOMEscan",baseline: DMSO control,96
"RIPK4 (Homo sapiens, UniProt P57078)","kinase binding, KINOMEscan",baseline: DMSO control,78
"WNK3 (Homo sapiens, UniProt Q9BYP7)","binding, competition with immobilised ligand",,100
"MARK2 (Homo sapiens, UniProt Q7KZI7)","kinase binding, KINOMEscan",baseline: DMSO control,17
"MAPK3 (Homo sapiens, UniProt P27361)","binding, competition with immobilised ligand",,88
"NEK6 (Homo sapiens, UniProt Q9HC98)","kinase binding, KINOMEscan",baseline: DMSO control,94
"HUNK (Homo sapiens, UniProt P57058)","binding, competition with immobilised ligand",,77
"ULK2 (Homo sapiens, UniProt Q8IYT8)","binding, competition with immobilised ligand",,95
"NEK10 (Homo sapiens, UniProt Q6ZWH5)","binding, competition with immobilised ligand",,100
"PAK4 (Homo sapiens, UniProt O96013)","binding, competition with immobilised ligand",,100
"ACVRL1 (Homo sapiens, UniProt P37023)","binding, competition with immobilised ligand",,99
"MAP3K5 (Homo sapiens, UniProt Q99683)","kinase binding, KINOMEscan",baseline: DMSO control,100
"Tyrosine-protein kinase ABL1, non-phosphorylated (ABL1, Homo sapiens, UniProt P00519, Q252H)","kinase binding, KINOMEscan",baseline: DMSO control,34
"JAK3 (Homo sapiens, UniProt P52333)","kinase binding, KINOMEscan",baseline: DMSO control,100
"RET (Homo sapiens, UniProt P07949, M918T)","binding, competition with immobilised ligand",,99
"STK11 (Homo sapiens, UniProt Q15831)","binding, competition with immobilised ligand",,52

# Sample 3 — cell line: MDA-MB-468; read-out: cell viability; technique: CellCounting-Lite; concentration: 222.2 nM; temperature: 37 °C; reading: higher = more viable cells
Structure (SMILES),luminescence signal
CCn1cnc2c(NCc3nc4cc(F)c(F)cc4[nH]3)nc(N3CCn4ncnc4C3)nc21,84900 a.u. and 87800 a.u. and 69600 a.u.
CCn1cnc2c(NCc3nc4cc(Cl)c(Cl)cc4[nH]3)nc(N3CCn4ncnc4C3)nc21,39400 a.u. and 43200 a.u. and 37000 a.u.
CCn1cnc2c(NCc3nc4cc(Cl)c(Cl)cc4[nH]3)nc(N3CCN(C(=O)c4ccccc4)CC3)nc21,29500 a.u. and 32000 a.u. and 34400 a.u.
CC(=O)N1CCN(c2nc(NCc3nc4cc(Cl)c(Cl)cc4[nH]3)c3ncn(C)c3n2)CC1,106000 a.u. and 65600 a.u. and 96800 a.u.
CCn1cnc2c(NCc3nc4cc(Cl)c(Cl)cc4[nH]3)nc(N3CCN(C(=O)c4ccccn4)CC3)nc21,33700 a.u. and 44500 a.u. and 33100 a.u.
CCn1cnc2c(NCc3nc4cc(Cl)c(Cl)cc4[nH]3)nc(N3CCN(C(=O)c4ccncc4)CC3)nc21,47300 a.u. and 33600 a.u. and 45400 a.u.
CCn1cnc2c(NCc3nc4cc(Cl)c(Cl)cc4[nH]3)nc(N3CCN(C(=O)[C@H](C)NC(C)=O)CC3)nc21,44000 a.u. and 39100 a.u. and 42600 a.u.
CCn1cnc2c(NCc3nc4cc(Cl)c(Cl)cc4[nH]3)nc(N3CCN(C(=O)c4cccnc4)CC3)nc21,33400 a.u. and 36600 a.u. and 31100 a.u.
CCn1cnc2c(NCc3nc4cc(Cl)c(Cl)cc4[nH]3)nc(N3CCC(NC(C)=O)CC3)nc21,62000 a.u. and 92200 a.u. and 71800 a.u.
Cn1cc(-n2cnc3c(NCc4nc5cc(Cl)c(Cl)cc5[nH]4)nc(N4CCNCC4)nc32)cn1,42400 a.u. and 39600 a.u. and 43200 a.u.
CC(=O)N1CCN(c2nc(NCc3nc4cc(Cl)c(Cl)cc4[nH]3)c3ncn(C(C)C)c3n2)CC1,521000 a.u. and 432000 a.u. and 390000 a.u.
CCn1cnc2c(NCc3nc4cc(Cl)c(Cl)cc4[nH]3)nc(N3CCN(C(=O)CNC(C)=O)CC3)nc21,36000 a.u. and 29700 a.u. and 28500 a.u.
CCn1cnc2c(NCc3nc4ccc(F)c(F)c4[nH]3)nc(N3CCn4ncnc4C3)nc21,50600 a.u. and 44000 a.u. and 42400 a.u.
CC(=O)N1CCN(c2nc(NCc3nc4cc(Cl)c(Cl)cc4[nH]3)c3ncn(-c4cnn(C)c4)c3n2)CC1,33000 a.u. and 35100 a.u. and 38400 a.u.
CCCCOc1nc(NCc2nc3cc(Cl)c(Cl)cc3[nH]2)c2ncn(CC)c2n1,130000 a.u. and 117000 a.u. and 102000 a.u.
CCn1cnc2c(NCc3nc4cc(Cl)c(Cl)cc4[nH]3)nc(N3CCN(c4ccccn4)CC3)nc21,455000 a.u. and 385000 a.u. and 388000 a.u.
CCn1cnc2c(NCc3nc4cc(Cl)c(Cl)cc4[nH]3)nc(N3CCN(Cc4ccncc4)CC3)nc21,33100 a.u. and 30400 a.u. and 31800 a.u.
CCn1cnc2c(NCc3nc4cc(Cl)c(Cl)cc4[nH]3)nc(N3CCN(C(C)=O)CC3)nc21,36800 a.u. and 33100 a.u.

# Sample 4
# SMILES: CC(C)=CCN1C(=O)C(O)(C(=O)O)Oc2cc(F)ccc21 (centres unmarked)
organism,assay,system,conditions,scale,inhibition
Arabidopsis thaliana,hypocotyl length,"Col-0, seedlings",6.25 µg/mL,,3.92%
Zea mays,fresh weight,,"soil surface spray, 150 g ai/ha, 21 days, pre-emergence crop safety",,7.2% and 6.1% and 6.5%
Arabidopsis thaliana,root length,"Col-0, seedlings",12.5 µg/mL,,12.6%
Arabidopsis thaliana,root length,Col-0,"12.5 µg/mL, 7 days, seed germination, dark",,12.6%
Arabidopsis thaliana,root length,"Col-0, seedlings",6.25 µg/mL,,11.9%
Abutilon theophrasti,fresh weight,,"150 g ai/ha, pre-emergence treatment",,79.2% and 77.4%
Arabidopsis thaliana,root length,"Col-0, seedlings",100 µg/mL,baseline: water control,41%
Arabidopsis thaliana,root length,"Col-0, seedlings",3.125 µg/mL,baseline: water control,10.7%
Arabidopsis thaliana,root length,Col-0,"100 µg/mL, 7 days, seed germination, dark",,41%
Arabidopsis thaliana,root length,Col-0,"25.0 µg/mL, 7 days, seed germination, dark",,17.9%
Alopecurus aequalis,fresh weight,,"150 g ai/ha, pre-emergence treatment",,74.5% and 79.1% and 81.3%
Arabidopsis thaliana,root length,Col-0,"3.13 µg/mL, 7 days, seed germination, dark",,10.7%
Arabidopsis thaliana,hypocotyl length,Col-0,"50.0 µg/mL, 7 days, seed germination, dark",,13%
Arabidopsis thaliana,hypocotyl length,Col-0,"3.125 µg/mL, 7 days, seed germination, dark",,1.4%

# Sample 5 — technique: DNA microarray
# Compound: COCC1CC2C(CCC3(C)C(O)CCC23)c2ccc(O)cc21 (centres unmarked)
cell line,assay,conditions,scale,log2 fold change
PANC-1,measured: ORC1L,"concentration not given, lower dose arm",baseline: untreated cells,-0.507
PANC-1,measured: ISG20L1,"concentration not given, lower dose arm",baseline: untreated cells,-0.0678
A549,measured: MOG mRNA,concentration not given,baseline: control,3.87
PANC-1,measured: DNER,"concentration not given, lower dose arm",baseline: untreated cells,6.11
PANC-1,measured: GTSE1,concentration not given,baseline: untreated cells,-1.3
A549,measured: MCM10,50 µM,baseline: untreated cells,-0.365
SK-OV-3,measured: RFC3,"concentration not given, higher dose arm",baseline: untreated cells,-0.242
A549,measured: GINS1,50 µM,baseline: untreated cells,-0.444
SK-OV-3,measured: CDC25B,"concentration not given, lower dose arm",baseline: untreated cells,0.176
SK-OV-3,measured: MCM6,"concentration not given, higher dose arm",baseline: untreated cells,-0.352
A549,measured: RFC3,50 µM,baseline: untreated cells,-0.273

# Sample 6 — read-out: binding; technique: competition with immobilised ligand; concentration: 1 µM
# Structure (SMILES): COc1cc(-c2nc3ccc(C(=O)NCCCN4CCN(c5cccc(C)c5C)CC4)cc3n2C2CCC2)cc(OC)c1OC
target,remaining binding [%]
"PIK3CA (Homo sapiens, UniProt P42336, I800L)",100
"PIK3CA (Homo sapiens, UniProt P42336)",95
"PRKG2 (Homo sapiens, UniProt Q13237)",71
"KDR (Homo sapiens, UniProt P35968)",70
"PIK3CA (Homo sapiens, UniProt P42336, C420R)",100
"PIM3 (Homo sapiens, UniProt Q86V86)",92
"ULK2 (Homo sapiens, UniProt Q8IYT8)",93
"GAK (Homo sapiens, UniProt O14976)",100
"TNK1 (Homo sapiens, UniProt Q13470)",77
"EGFR (Homo sapiens, UniProt P00533, L858R)",68
"EPHB4 (Homo sapiens, UniProt P54760)",85
"KIT (Homo sapiens, UniProt P10721, D816V)",100
"MAP2K6 (Homo sapiens, UniProt P52564)",81
"TAOK3 (Homo sapiens, UniProt Q9H2K8)",84
"Tyrosine-protein kinase JAK2, JH1 (JAK2, Homo sapiens, UniProt O60674)",100
"MAP3K10 (Homo sapiens, UniProt Q02779)",90
"PTK2B (Homo sapiens, UniProt Q14289)",100
"TEC (Homo sapiens, UniProt P42680)",100
"CSNK1A1L (Homo sapiens, UniProt Q8N752)",100
"CHEK2 (Homo sapiens, UniProt O96017)",100
"BRAF (Homo sapiens, UniProt P15056, V600E)",99
"IRAK4 (Homo sapiens, UniProt Q9NWZ3)",94
"PLK3 (Homo sapiens, UniProt Q9H4B4)",78

# Sample 7 — cell line: U-87 MG; concentration: concentration not given; baseline: DMSO
# SMILES: CCN1/C(=C/C=C2\CCCC(/C=C/C3=[N+](CC)c4ccccc4C3(C)C)=C2NCCCCCCCCN2CCC(Nc3nc4ccccc4n3Cc3ccc(F)cc3)CC2)C(C)(C)c2ccccc21
assay,log2 fold change
measured: IL1B mRNA,3.22
measured: RAB7B mRNA,-3.14
measured: PRR5L mRNA,-1.25
measured: TULP3 mRNA,1.47
measured: EMP2 mRNA,-1.11
measured: KRT33B mRNA,3.77
measured: SWI5 mRNA,0.818
measured: TPX2 mRNA,-1.67
measured: LTBP2 mRNA,-1.65
measured: TUFT1 mRNA,1.29
measured: CEP55 mRNA,-1.68
measured: MXD3 mRNA,-2.12
measured: ARHGEF17 mRNA,-1.31
measured: DTYMK mRNA,-1.35
measured: PEG10 mRNA,-1.24
measured: PRDM1 mRNA,1.37

# Other studies, line by line
SMILES,target or system,assay,system,conditions,scale,endpoint,value
Cc1ccc(O)c(C)c1-c1cnc2[nH]c(-c3cnc(N4CCC(CN5CCN(c6ccc7c(c6F)CN(C6CCC(=O)NC6=O)C7=O)CC5)CC4)nc3)cc2c1C#N (centres unmarked),,,CD-1 mouse,"oral, 20 mg/kg, 24 h",,plasma concentration,not detected
"Cc1ccc(O)c(C)c1-c1cnc2[nH]c(-c3cnc(N4CCC5(CC4)CC(N4CCN(c6ccc(N[C@H]7CCC(=O)NC7=O)cc6F)CC4)CO5)nc3)cc2c1C#N (single isomer, unassigned)",HCT-116,"MEK phosphorylation, paradoxical activator, measured: phospho-MEK",,,,EC50,142 nM
Cc1ccc(O)c(C)c1-c1cnc2[nH]c(-c3cnc(N4CCC(CN5CCN(c6ccc7c(c6)C(=O)N(C6CCC(=O)NC6=O)C7=O)CC5)CC4)nc3)cc2c1C#N (centres unmarked),,,"female CD-1 mouse, plasma","oral, 10 mg/kg, fasted",,bioavailability,27.4%
Cc1ccc(O)c(C)c1-c1cnc2[nH]c(-c3cnc(N4CCC(CCN5CCN(c6cc7c(cc6F)c(N6CCC(=O)NC6=O)nn7C)CC5)CC4)nc3)cc2c1C#N,"PKMYT1 (Homo sapiens, UniProt Q99640)","degrader, automated immunoblot (Jess)",,0.1 nM,baseline: GAPDH,protein level,70.6%

# A few entries again (sample 1):
target,conditions,SYPRO Orange fluorescence [a.u.]
WDR5,27 °C,13300
DCAF1,83.41 °C,37300
WDR5,70.61 °C,29600
WDR5,37.6 °C,13800
WDR5,84.01 °C,63600
WDR5,61.61 °C,15200
WDR5,59.81 °C,15400
WDR5,37.4 °C,13800
WDR5,82.41 °C,65400
DCAF1,87.21 °C,34200
DCAF1,87.61 °C,34100
